Experimental data pooled from the literature.
Each numbered part is a random draw from the data of one study; scales do not carry over between parts.

Study 1
Target: Eukaryotic initiation factor 4A-I (EIF4A1, Homo sapiens, UniProt P60842, residues 1-406, full length assumed)
Chain of UniProt P60842 (whole entry, looked up): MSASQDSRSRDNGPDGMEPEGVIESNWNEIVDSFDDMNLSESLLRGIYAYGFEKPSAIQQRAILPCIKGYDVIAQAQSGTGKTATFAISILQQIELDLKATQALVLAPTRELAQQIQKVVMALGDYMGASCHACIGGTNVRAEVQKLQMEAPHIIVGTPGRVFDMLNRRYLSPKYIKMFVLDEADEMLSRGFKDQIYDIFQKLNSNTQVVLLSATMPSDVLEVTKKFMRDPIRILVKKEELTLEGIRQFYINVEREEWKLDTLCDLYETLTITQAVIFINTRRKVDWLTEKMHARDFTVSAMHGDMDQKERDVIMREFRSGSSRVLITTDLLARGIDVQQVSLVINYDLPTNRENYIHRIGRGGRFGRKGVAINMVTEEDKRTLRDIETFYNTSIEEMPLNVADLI
Technique: RNA Bind-n-Seq
Molecule type: RNA
Matrix: in vitro
Concentration: 15 pmol
Setting: 4-mer, random 30-nt RNA, single round
With: DMSO vehicle, 2 mM AMP-PNP
Reference: input library
Reading: higher = stronger binding
`AAGA` has a 4-mer enrichment of 1.08 fold.
With `UCUG` the 4-mer enrichment was 1.16 fold.
`UCUC` gave a 4-mer enrichment of 1.08 fold.
The 4-mer enrichment of `UCCC` is reported as 1.36 fold.
`AGCA` has a 4-mer enrichment of 1.41 fold.
For `GUUC`, the 4-mer enrichment was 0.911 fold.
The 4-mer enrichment of `GCUG` is reported as 1.2 fold.
`UGGA` gave a 4-mer enrichment of 1.05 fold.
With `AACU` the 4-mer enrichment was 1.07 fold.
`UAUU` gave a 4-mer enrichment of 0.845 fold.
`AGAC` gave a 4-mer enrichment of 0.909 fold.
The 4-mer enrichment of `AUUC` is reported as 0.897 fold.
`CCAA` gave a 4-mer enrichment of 2.01 fold.
`GAGA` has a 4-mer enrichment of 1.02 fold.
`CAAU` has a 4-mer enrichment of 1.11 fold.

Study 2
Target: Histone acetyltransferase KAT6A, winged helix 1, GST fusion (KAT6A, Homo sapiens, UniProt Q92794, residues 1-85)
Technique: protein binding microarray
Molecule type: double-stranded DNA, one strand shown
Matrix: in vitro
Concentration: not given
Setting: 8-mer, flanks averaged, mean of 2 arrays, mostly near background
Reference: not given
Reading: higher = stronger binding
Construct (chain): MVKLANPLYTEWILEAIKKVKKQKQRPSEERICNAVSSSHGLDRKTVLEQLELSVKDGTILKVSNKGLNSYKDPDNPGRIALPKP
For `AACGGAAG`, the E-score was 0.159.
With `CCGCAACC` the E-score was 0.127.
The E-score of `AATTCCAT` is reported as -0.179.
For `ACTCCGCG`, the E-score was 0.278.
`CACGAAAG` has an E-score of 0.0426.
`ATGCTGAA` gave an E-score of -0.209.
With `GGTCATCA` the E-score was 0.00993.
The E-score of `GAAGTACA` is reported as -0.116.
For `CCCAGCGA`, the E-score was -0.0881.
With `GGTTTCAA` the E-score was 0.0126.
With `ACTGCGCT` the E-score was 0.149.
For `AGAGCGGC`, the E-score was 0.359.
With `CAGAGGAA` the E-score was -0.247.
For `GCCCTACC`, the E-score was 0.0188.
`GAAGCGCC` has an E-score of 0.284.
With `CTAATTCC` the E-score was -0.143.
`AAAGTAGA` has an E-score of -0.301.
`TGAAGTCA` has an E-score of -0.183.
With `CGCTGGCC` the E-score was 0.29.
`CCGTAAAA` has an E-score of 0.219.
`TGCAGCAA` gave an E-score of -0.224.
The E-score of `AGTGCATG` is reported as -0.203.
With `AATGGTTC` the E-score was 0.00359.
For `CTACTTGC`, the E-score was -0.0179.
The E-score of `CCATTGTC` is reported as -0.14.

Study 3
Molecule: KRRLDLETDHQY
Technique: competitive growth deep sequencing
Molecule type: peptide
Concentration: concentration not given
Setting: peptide tiling library
Reading: direction not given
yeast with cyclin B3-Cln2 chimera; cell growth, binder — “growth enrichment score”: 0.0484.
yeast with cyclin D1-Cln2 chimera; cell growth, binder — “growth enrichment score”: -0.297.
yeast with cyclin E2-Cln2 chimera; cell growth, binder — “growth enrichment score”: 0.9.
It gave -0.843 for “growth enrichment score” (Saccharomyces cerevisiae; binding; cyclin D3-Cln2 fusion strain).
Saccharomyces cerevisiae; binding; cyclin D2-Cln2 fusion strain — “growth enrichment score”: -0.714.
yeast with cyclin F-Cln2 chimera; cell growth, binder — “growth enrichment score”: 3.78.

Study 4
Target: Interferon regulatory factor 3, full length, phosphomimetic (IRF3, Homo sapiens, UniProt Q14653, residues 1-427, S386D/S396D/S398D/S402D/T404D/S405D)
Technique: protein-binding microarray
Molecule type: double-stranded DNA, one strand shown
Matrix: in vitro
Concentration: 2540 nM top
Setting: 60-bp whole probe
With: salmon DNA 0.4 mg/ml
Reference: random background probes
Reading: higher = stronger binding
Constant ends, left off below: GCCTAGCAC … GTCTTGATTCGCTTGACGCTGCTG
Construct (chain): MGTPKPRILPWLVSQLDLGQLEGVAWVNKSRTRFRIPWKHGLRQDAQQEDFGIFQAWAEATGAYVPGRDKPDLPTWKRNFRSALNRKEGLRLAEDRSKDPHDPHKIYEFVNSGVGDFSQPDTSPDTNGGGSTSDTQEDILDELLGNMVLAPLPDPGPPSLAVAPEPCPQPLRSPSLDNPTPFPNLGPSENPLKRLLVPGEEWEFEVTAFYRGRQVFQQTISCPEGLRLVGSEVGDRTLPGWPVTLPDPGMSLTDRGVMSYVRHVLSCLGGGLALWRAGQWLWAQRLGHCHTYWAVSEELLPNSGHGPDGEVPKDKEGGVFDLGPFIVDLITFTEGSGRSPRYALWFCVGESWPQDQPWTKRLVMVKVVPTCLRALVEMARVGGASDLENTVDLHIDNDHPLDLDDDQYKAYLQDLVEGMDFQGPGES
Under “fitted relative affinity”, `GTAGATCTCAGACTGGATTAGTGCTAG` is recorded as 0.0552 z-score.
For `CTAGGTTTCCTTCTCCTTTAGTGCTAG`, “fitted relative affinity” read 10.6 z-score.
For `TTAGGTATCCTACTGTTTTAGTGCTAG`, “fitted relative affinity” read 2.29 z-score.
Under “fitted relative affinity”, `TCACCTTGAACTTTGGCACTGTGCTAG` is recorded as -0.00325 z-score.
`TCAAGTTTCTCCTTTCGACTGTGCTAG`: “fitted relative affinity” 2.04 z-score.
`GACGGACTTGGTCTCGGGACGTGCTAG` — result for “fitted relative affinity”: -0.416 z-score.
Under “fitted relative affinity”, `TTAGGACTGAGGTTTCGGTTAGTGCTA` is recorded as 3.3 z-score.
`GACGATATCGGGACTGGAGGCGTGCTA`: “fitted relative affinity” -0.0526 z-score.
For `GACGGTATCGGTCTCGGGACGTGCTAG`, “fitted relative affinity” read 4.38 z-score.
`GACGGTATCGGACTGGAGACGTGCTAG`: “fitted relative affinity” 1.47 z-score.
Under “fitted relative affinity”, `GACGATATCGGGTATCGATACGTGCTA` is recorded as 0.742 z-score.
For `GACGATTTCAGTTCCGAAACGTGCTAG`, “fitted relative affinity” read 4 z-score.
For `TCATTTTCATGCTCTTATACTGTGCTA`, “fitted relative affinity” read 2.04 z-score.
For `GACGTACTGAGTTTCGAGACGTGCTAG`, “fitted relative affinity” read 1.18 z-score.
`GACGGTATACTACTGCTGACGTGCTAG` — result for “fitted relative affinity”: -0.013 z-score.
Under “fitted relative affinity”, `TGCAACATCTACAATGGCTTTGTGCTA` is recorded as -0.169 z-score.
Under “fitted relative affinity”, `CTAGGTATCGACACTGGGTTAGTGCTA` is recorded as 0.261 z-score.

Study 5
Target: RNA binding protein fox-1 homolog 2, RRM domain, GST-SBP tag (RBFOX2, Homo sapiens, UniProt O43251-10, residues 100-194)
Technique: RNA Bind-n-Seq
Molecule type: RNA
Matrix: in vitro
Concentration: 365 nM
Setting: natural RNA segment, single round, ends assumed
Reference: no-protein control
Reading: higher = stronger binding
Construct (chain): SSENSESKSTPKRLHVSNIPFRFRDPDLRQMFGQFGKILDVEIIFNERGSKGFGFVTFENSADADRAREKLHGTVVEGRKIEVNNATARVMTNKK
`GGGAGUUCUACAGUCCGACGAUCACUGUGGUCCCCUGGGCCCUGACCCCAGACAUGUAAAUACUCCUCAAAUUUGGAAAAGUUGUCCCAUCCCUUCCCCCUUUGCCCCAGUGUCCCUGCUCACUUCCAGUCAGUGGAAUUCUCGGGUGCCAA`: “RBNS enrichment (R)” 0.437.
`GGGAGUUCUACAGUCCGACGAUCGAGCCUCGGUUUGCCCAGGCCCCUGGGUGCCCCUGCCCACCUACACCUUGAGGGGCUGACCUGUGUUAGGCAGUGGCCAUGGCCCAGUGUGAUGUUGUGUUGCUCACACAUGGAAUUCUCGGGUGCCAA`: “RBNS enrichment (R)” 0.542.
`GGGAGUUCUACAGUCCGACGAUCCAGCAAGAAAGUACCCUGUUGGAUAGUCCAGAUGAAGAAGUGGCUCACUAUAUAUCCCUGCAUAGAUUCCUAAUUAUGCCGUUUCUAAAUCUUAACCGAUUUCUUGAACAUGGAAUUCUCGGGUGCCAA` — result for “RBNS enrichment (R)”: 0.36.
Under “RBNS enrichment (R)”, `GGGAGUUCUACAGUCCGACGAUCACAGUAGCUGAAUUGUGUUAUCAAAACAACUCUGACUUCUGCCCAGAGCACAUUAAAACCAAAGUCUGAUUGUUAAGCCUUUGACUCGGAUGUCUGUAGCAGUUCUAUGAUGGAAUUCUCGGGUGCCAA` is recorded as 0.519.
For `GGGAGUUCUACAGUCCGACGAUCUCAUUGGCCCAGCUUGGCGAAAGCGAGGCACACUGCUUACUGCCUUGGGGUUGUGGAGAUGGACCCGUGACCUCGUGGAGGCCGUGUGGGGGCAGCAGCCUGGCCUGUGCUGGAAUUCUCGGGUGCCAA`, “RBNS enrichment (R)” read 0.688.
For `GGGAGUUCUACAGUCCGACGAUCCGGUGGCUCCACCACUUCCGCAGGCCUGGAAACUUCCUUCUCCGGAGGACCUUUUACUAAAAGGUAGAAGACUUCAUGGCUUACUUGUUCCAUAACUCCAAGUGAGUCUGUGGAAUUCUCGGGUGCCAA`, “RBNS enrichment (R)” read 0.154.
`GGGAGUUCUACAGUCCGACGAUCUAGAAACCAAAUGGUGUAAAUAUUUUAUUUGAUAAAGAUAGUUGAUGGUUUAUUUUAAAAGAUGCACUUUGAGUUGCAAUAUGUUAUUUUUAUAUGGGCCAAAAACAAAAUGGAAUUCUCGGGUGCCAA` — result for “RBNS enrichment (R)”: 0.593.
`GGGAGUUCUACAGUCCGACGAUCCAAACCAAUCAAAUAUGGUCCUAAGAAUGCAGGGUGGGAUUAGAGCCAGUGUCUCUGCUUGAGAUGGAAUGGUGUUCCCAGCCUGCCUUGUCACUCCUCACCUGAGAGGAUGGAAUUCUCGGGUGCCAA`: “RBNS enrichment (R)” 0.217.
`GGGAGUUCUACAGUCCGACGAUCAAGAAAUAUGUUUAUUUUGGGCAAAGAUUUGCUUAUUGGCCUGGGAUUGCACAUUUUCUCUAUGAUGUUUGCAACAGAGAAAUUUUCAUUUUAAUGAUACUCUUCCUUUCUGGAAUUCUCGGGUGCCAA` — result for “RBNS enrichment (R)”: 0.957.
For `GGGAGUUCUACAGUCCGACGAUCUUGAACACGUGCACACAUGAGUUCCAAUUUUGCUUCCUUUUGUUAUAAUGUUUCAACAAACAGAAGGUAGACAACAGGUUGUUGGUGGACAUGCUUGGUGCUUUUGGUAUUGGAAUUCUCGGGUGCCAA`, “RBNS enrichment (R)” read 0.4.
`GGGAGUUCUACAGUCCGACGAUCUCACCCAGCACCCAGCUUAACCCUGCCACCCCACACUCCUGGGAGCACUGGGCUGAGGGGGUCUCAGCUGGUCUGGAGUCCAGACCUCGCCAUCCCCUGCCCACCAUUGCUGGAAUUCUCGGGUGCCAA`: “RBNS enrichment (R)” 0.339.
`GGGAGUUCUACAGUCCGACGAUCCAGGCGAGUGCCAGCAGUGUUACUGCCGCCCCAUGUGGUGCCUCACCUGCAUGGGCAAGUGGUUCGCCAGCCGCCAGGACCCCCUGCGCCCUGACACCUGGCUGGCCAGCUGGAAUUCUCGGGUGCCAA`: “RBNS enrichment (R)” 0.297.

Some of these lines once more (study 4):
Under “fitted relative affinity”, `TCACCTTGAACTTTGGCACTGTGCTAG` is recorded as -0.00325 z-score.
`TCAAGTTTCTCCTTTCGACTGTGCTAG`: “fitted relative affinity” 2.04 z-score.
`GACGGACTTGGTCTCGGGACGTGCTAG` — result for “fitted relative affinity”: -0.416 z-score.
Under “fitted relative affinity”, `TTAGGACTGAGGTTTCGGTTAGTGCTA` is recorded as 3.3 z-score.
`GACGATATCGGGACTGGAGGCGTGCTA`: “fitted relative affinity” -0.0526 z-score.
For `GACGGTATCGGTCTCGGGACGTGCTAG`, “fitted relative affinity” read 4.38 z-score.
`GACGGTATCGGACTGGAGACGTGCTAG`: “fitted relative affinity” 1.47 z-score.
Under “fitted relative affinity”, `GACGATATCGGGTATCGATACGTGCTA` is recorded as 0.742 z-score.
For `GACGATTTCAGTTCCGAAACGTGCTAG`, “fitted relative affinity” read 4 z-score.
For `TCATTTTCATGCTCTTATACTGTGCTA`, “fitted relative affinity” read 2.04 z-score.
For `GACGTACTGAGTTTCGAGACGTGCTAG`, “fitted relative affinity” read 1.18 z-score.
`GACGGTATACTACTGCTGACGTGCTAG` — result for “fitted relative affinity”: -0.013 z-score.
